Published values pooled from the literature.
Each numbered part is a random draw from the data of one study; scales do not carry over between parts.
Sequence of UniProt Q9Y2U5 (whole entry, looked up): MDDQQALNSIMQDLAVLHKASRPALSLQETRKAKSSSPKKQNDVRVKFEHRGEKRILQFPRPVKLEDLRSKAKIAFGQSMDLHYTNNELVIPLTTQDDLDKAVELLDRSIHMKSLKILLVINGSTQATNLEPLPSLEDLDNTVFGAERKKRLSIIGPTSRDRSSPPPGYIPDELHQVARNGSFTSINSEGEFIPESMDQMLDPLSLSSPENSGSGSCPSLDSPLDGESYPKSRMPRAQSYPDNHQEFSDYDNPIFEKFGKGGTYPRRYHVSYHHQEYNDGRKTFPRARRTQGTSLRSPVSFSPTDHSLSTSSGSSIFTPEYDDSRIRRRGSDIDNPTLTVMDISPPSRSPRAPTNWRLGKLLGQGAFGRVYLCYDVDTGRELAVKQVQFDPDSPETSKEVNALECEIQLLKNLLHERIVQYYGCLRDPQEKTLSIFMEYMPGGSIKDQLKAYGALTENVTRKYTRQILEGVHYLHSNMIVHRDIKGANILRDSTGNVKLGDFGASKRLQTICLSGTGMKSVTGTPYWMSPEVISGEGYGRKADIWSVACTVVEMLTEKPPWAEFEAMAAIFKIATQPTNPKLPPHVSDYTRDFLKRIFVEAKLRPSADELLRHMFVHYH
Sequence of UniProt Q09013 (whole entry, looked up): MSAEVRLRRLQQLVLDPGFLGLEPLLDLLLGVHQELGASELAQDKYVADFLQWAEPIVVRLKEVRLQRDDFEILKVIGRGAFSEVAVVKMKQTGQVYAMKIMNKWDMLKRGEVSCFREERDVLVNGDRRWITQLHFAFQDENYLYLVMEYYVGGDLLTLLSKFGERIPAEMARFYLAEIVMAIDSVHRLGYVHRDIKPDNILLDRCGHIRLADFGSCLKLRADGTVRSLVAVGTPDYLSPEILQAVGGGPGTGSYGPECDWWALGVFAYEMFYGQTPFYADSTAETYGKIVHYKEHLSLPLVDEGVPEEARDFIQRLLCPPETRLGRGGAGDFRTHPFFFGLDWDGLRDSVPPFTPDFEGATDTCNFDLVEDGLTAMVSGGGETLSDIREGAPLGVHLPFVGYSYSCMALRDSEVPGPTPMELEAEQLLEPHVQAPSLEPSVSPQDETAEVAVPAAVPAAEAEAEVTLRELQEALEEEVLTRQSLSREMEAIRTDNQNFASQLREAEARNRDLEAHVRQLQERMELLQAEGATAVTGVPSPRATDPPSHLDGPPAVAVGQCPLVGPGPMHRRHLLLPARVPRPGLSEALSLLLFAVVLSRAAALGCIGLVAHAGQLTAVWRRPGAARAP
Sequence of UniProt P53779 (whole entry, looked up): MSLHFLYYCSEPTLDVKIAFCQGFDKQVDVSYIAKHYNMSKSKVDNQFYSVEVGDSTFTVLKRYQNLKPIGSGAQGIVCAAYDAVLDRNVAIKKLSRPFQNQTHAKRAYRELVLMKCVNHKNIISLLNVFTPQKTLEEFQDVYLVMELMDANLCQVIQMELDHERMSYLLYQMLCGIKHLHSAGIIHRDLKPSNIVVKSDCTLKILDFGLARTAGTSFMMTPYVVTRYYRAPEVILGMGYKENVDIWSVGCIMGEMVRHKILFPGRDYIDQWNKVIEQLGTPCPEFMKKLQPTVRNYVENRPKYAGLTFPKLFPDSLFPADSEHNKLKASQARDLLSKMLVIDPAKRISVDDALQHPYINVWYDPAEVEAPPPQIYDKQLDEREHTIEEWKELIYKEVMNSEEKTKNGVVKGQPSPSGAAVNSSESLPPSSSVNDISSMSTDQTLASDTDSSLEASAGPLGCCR
Sequence of UniProt P50613 (whole entry, looked up): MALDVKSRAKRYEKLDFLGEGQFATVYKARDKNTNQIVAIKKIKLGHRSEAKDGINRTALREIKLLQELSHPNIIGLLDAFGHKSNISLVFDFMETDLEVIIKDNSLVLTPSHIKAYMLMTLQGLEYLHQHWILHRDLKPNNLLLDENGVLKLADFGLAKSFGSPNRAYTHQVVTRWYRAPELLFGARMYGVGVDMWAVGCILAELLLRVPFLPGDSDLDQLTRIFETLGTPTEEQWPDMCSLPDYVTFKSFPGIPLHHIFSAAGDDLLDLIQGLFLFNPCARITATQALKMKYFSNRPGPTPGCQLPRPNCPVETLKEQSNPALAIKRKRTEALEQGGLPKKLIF
Sequence of UniProt P41279 (whole entry, looked up): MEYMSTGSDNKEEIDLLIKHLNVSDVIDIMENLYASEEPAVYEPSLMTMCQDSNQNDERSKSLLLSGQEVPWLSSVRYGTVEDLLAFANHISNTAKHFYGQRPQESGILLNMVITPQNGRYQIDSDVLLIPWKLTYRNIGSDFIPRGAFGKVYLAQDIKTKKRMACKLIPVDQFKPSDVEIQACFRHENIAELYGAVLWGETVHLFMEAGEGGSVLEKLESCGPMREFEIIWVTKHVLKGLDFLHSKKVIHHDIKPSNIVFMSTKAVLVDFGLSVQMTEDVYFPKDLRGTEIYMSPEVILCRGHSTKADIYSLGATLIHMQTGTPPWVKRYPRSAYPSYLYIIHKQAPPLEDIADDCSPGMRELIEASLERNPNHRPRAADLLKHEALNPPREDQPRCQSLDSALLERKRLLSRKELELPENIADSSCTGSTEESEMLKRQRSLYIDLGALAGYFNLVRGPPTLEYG
Sequence of UniProt P07949 (whole entry, looked up): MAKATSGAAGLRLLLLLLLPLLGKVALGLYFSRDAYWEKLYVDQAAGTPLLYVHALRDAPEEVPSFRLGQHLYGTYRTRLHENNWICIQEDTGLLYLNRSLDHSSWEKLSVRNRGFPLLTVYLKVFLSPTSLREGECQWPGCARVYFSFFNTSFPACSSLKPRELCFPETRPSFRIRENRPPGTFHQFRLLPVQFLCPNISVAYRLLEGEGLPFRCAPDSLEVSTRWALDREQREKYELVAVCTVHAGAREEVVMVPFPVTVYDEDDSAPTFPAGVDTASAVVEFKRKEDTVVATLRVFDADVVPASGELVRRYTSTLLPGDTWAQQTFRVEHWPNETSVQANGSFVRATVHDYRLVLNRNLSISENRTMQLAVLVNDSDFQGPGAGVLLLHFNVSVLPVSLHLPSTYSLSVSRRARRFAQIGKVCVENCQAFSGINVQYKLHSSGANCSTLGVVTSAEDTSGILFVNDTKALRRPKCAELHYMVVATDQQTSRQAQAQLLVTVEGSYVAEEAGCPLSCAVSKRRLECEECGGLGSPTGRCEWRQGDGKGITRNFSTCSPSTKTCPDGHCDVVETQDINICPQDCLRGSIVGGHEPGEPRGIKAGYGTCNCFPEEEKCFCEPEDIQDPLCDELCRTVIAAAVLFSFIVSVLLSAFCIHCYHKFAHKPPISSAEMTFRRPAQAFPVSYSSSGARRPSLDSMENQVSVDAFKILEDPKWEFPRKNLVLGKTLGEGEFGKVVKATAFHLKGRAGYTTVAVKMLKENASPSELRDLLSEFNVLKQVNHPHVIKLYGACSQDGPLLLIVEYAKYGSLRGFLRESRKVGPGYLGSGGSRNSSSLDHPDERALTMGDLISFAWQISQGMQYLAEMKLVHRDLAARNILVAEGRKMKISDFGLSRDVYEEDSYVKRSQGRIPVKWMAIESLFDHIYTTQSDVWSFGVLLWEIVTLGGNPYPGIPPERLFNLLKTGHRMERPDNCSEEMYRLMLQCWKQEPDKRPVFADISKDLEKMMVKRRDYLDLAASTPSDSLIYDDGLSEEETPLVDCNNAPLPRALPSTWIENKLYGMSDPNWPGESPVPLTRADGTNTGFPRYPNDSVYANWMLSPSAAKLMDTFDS
Sequence of UniProt O14965 (whole entry, looked up): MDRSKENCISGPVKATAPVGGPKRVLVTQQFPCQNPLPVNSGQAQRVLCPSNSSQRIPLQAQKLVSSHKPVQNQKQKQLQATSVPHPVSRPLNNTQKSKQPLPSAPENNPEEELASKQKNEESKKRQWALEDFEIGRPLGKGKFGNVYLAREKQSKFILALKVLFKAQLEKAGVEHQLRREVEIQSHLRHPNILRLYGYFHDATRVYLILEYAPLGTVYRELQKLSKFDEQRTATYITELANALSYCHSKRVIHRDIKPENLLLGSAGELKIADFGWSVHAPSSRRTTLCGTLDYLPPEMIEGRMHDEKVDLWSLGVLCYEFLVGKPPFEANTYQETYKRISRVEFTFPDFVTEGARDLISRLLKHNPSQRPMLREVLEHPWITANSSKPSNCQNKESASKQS

Sample 1
Cell line: mouse MPNST tumor cells
Method: high-content nuclear imaging
Measured: cell number
Concentration: 10 µM
Time: 12 h
Setting: mean of 2 replicates
Reference: plate mean
Direction: higher = more cells
Compound | nuclei count [z-score]
CCCN(CCC)C1CCc2ccc(O)cc2C1 (stereo not drawn) | 2.33
NCC(O)c1ccc(O)cc1 (racemic) | 0.608
CC(C)C[C@H](CN)CC(=O)O | 0.249
CCOC(=O)c1ncc2[nH]c3ccc(OCc4ccccc4)cc3c2c1COC | -1.99

Sample 2
SMILES: COc1ccc2c(c[n+](C)c3c4cc5c(cc4ccc23)OCO5)c1OC
Read-out: enzyme activity
Action: inhibitor
Concentration: 0.5 µM
Reference: control
target | remaining activity
Cyclin-dependent kinase 7 (CDK7, Homo sapiens, UniProt P50613) | 91.9%
NT-3 growth factor receptor (NTRK3, Homo sapiens, UniProt Q16288) | 95.2%
Homeodomain-interacting protein kinase 3 (HIPK3, Homo sapiens, UniProt Q9H422) | 96.6%
Mitogen-activated protein kinase 10 (MAPK10, Homo sapiens, UniProt P53779) | 100%
STE20-like serine/threonine-protein kinase (SLK, Homo sapiens, UniProt Q9H2G2) | 87.4%
Mitogen-activated protein kinase kinase kinase 2 (MAP3K2, Homo sapiens, UniProt Q9Y2U5) | 99.8%
Aurora kinase A (AURKA, Homo sapiens, UniProt O14965) | 107%
Serine/threonine-protein kinase BRSK1 (BRSK1, Homo sapiens, UniProt Q8TDC3) | 90.8%
Mitogen-activated protein kinase kinase kinase 8 (MAP3K8, Homo sapiens, UniProt P41279) | 91.3%
Proto-oncogene tyrosine-protein kinase receptor Ret (RET, Homo sapiens, UniProt P07949) | 97%
Myotonin-protein kinase (DMPK, Homo sapiens, UniProt Q09013) | 100%

Sample 3
Target: 5-hydroxytryptamine receptor 1A (HTR1A, Homo sapiens, UniProt P08908)
Sequence of UniProt P08908 (whole entry, looked up): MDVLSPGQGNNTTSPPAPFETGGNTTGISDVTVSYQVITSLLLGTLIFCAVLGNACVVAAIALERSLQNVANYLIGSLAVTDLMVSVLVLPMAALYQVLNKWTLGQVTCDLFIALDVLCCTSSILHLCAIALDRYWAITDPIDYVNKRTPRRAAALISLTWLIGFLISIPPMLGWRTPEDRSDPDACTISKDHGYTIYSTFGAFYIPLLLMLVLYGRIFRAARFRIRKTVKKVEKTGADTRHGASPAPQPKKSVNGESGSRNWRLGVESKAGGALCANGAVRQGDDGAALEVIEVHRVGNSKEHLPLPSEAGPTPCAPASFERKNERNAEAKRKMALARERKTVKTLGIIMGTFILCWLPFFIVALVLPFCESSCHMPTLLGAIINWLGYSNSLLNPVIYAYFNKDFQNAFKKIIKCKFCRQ
Read-out: ligand displacement
Concentration: 10 µM
Structure (SMILES) | inhibition
CC1=C(C#N)C(c2ccc3[nH]nc(C)c3c2)C(C#N)=C(C)N1 | -5.32%
CNC(=O)Nc1ccc2c(c1)CC[C@]21OC(=O)N(CC(=O)N(Cc2ccc(F)cc2)[C@@H](C)C(F)(F)F)C1=O | 6.87%
Nc1nc(NCc2ccccc2)nc(-c2cccc(CO)c2)n1 | 65.5%
O=C(Nc1cccnn1)N1CC(CC=Cc2cncc(Oc3ccc(C(F)(F)F)cn3)n2)C1 | -25%
c1ccc(C2CCN(c3cnc4c(N5CCOCC5)nccn34)CC2)cc1 | 25.7%
CC[C@H](CC(=O)O)n1c(=O)c2ncccc2n(Cc2cn(C)c3cc(C)cc(C)c23)c1=O | 8.83%
Cc1c(N2CCNCC2)nc2ccc(Br)cc2c1C(=O)NC[C@H](CCC(=O)O)c1ccccc1Cl | 47.1%
O=C(NCCCC1CCCCC1)c1ccc(CNC(=O)c2cnn(-c3ccccc3)c2C(F)(F)F)cc1 | 20.1%
CN1CCN(c2ccnc(NCCc3ccccc3)n2)CC1 | 26.7%
Cc1ccccc1Oc1cc(-n2c(=O)cc(C(F)(F)F)[nH]c2=O)c2ccccc2c1Cl | 8.88%
NC(=O)c1ccc2nc(-c3ccc(C4(N)CCC4)cc3)c(-c3ccccc3)n2n1 | 32.7%
CS(=O)(=O)N1CCCC(NC(=O)[C@H](CCC2CCCCC2)NC(=O)c2ccc(CNC(=O)c3cnc4ccccn34)cc2)C1 (stereo partly drawn) | -18.9%
NS(=O)(=O)c1cc(NC(=O)Cc2ccccc2)ccc1Oc1cccc(Cl)c1 | -1.77%
CC(=O)Nc1nc(CN2CCC[C@H](Cc3cc(C)nc(C)c3)C2)cs1 | 12.3%
CCC(F)(F)c1cc(N2CCC(S(C)(=O)=O)CC2)nc2sc(C(N)=O)c(N)c12 | 14.4%
CC(=O)Nc1ncc(CN2CCC[C@H](Cc3cc(C)nc(C)c3)C2)s1 | 22.2%
N#CC1(c2ccccn2)CCN(Cc2cc(C(=O)N3CCCC3)c(=O)n3ccccc23)CC1 | 26.7%
Cc1noc([C@H]2C[C@@H](c3ccc(C(F)(F)F)cc3)CN(C(=O)N3CCS(=O)(=O)C3)C2)n1 | -4.52%
Cc1ncc(-c2cc(Cl)ccc2F)cc1-n1c(=O)n(CC(N)=O)c2ccccc21 | 12%
COc1cc(C(=O)O)ncc1C#Cc1ccccc1NS(=O)(=O)c1cccc2c(N(C)C)ccnc12 | 40.2%
COc1cccc(NC(=O)c2nc3scc(CN(C)Cc4ccccc4)c3c(=O)[nH]2)c1 | 15.8%
Nc1nc(NCc2ccccc2)nc(-c2ccccc2CO)n1 | 9.7%
CN1CCN(C(=O)C(C)(C)c2ccc(C(=O)Nc3cn4cc(-c5cc(C(C)(C)C)cc(C(C)(C)C)c5)ccc4n3)cc2)CC1 | 51.3%
COCc1nc2cnc3cc(-c4c(C)noc4C)c(OC[C@H]4CCNC4)cc3c2n1[C@H](C)c1ccccc1 | 15.3%
CN1C(=O)[C@@H](N2CCc3cn(Cc4ccccc4)nc3C2=O)COc2ccccc21 | 5.07%

Sample 4
Cell line: HEK-293T/ACE2
Concentration: concentration not given
Time: 16 (unit not given)
Reference: vehicle
SMILES | viability [%]
O=C1C(CC[S+]([O-])c2ccccc2)C(=O)N(c2ccccc2)N1c1ccccc1 (stereo not drawn) | 99.7
O=C1CCC(N2C(=O)c3ccccc3C2=O)C(=O)N1 (stereo not drawn) | 99.6
Nc1nc(F)nc2c1ncn2[C@@H]1O[C@H](COP(=O)(O)O)[C@@H](O)[C@@H]1O | 100
CCOC(=O)[C@H](CCc1ccccc1)N[C@@H](C)C(=O)N1CCC[C@H]1C(=O)O | 94.8
CC(=O)O[C@H]1C[C@@H]2CC[C@@H]3[C@H](CC[C@@]4(C)[C@H]3C[C@H]([N+]3(C)CCCCC3)[C@@H]4OC(C)=O)[C@@]2(C)C[C@@H]1N1CCCCC1 | 100
CCn1nc(C(=O)O)c(=O)c2cc3c(cc21)OCO3 | 102
Cc1ccccc1N1C(=O)c2cc(S(N)(=O)=O)c(Cl)cc2NC1C (stereo not drawn) | 101
O=NN(CCCl)C(=O)NC1CCCCC1 | 99.2
C[C@]12CC[C@@H]3c4ccc(OC(=O)c5ccccc5)cc4CC[C@H]3[C@@H]1CC[C@@H]2O | 101
CN1CCC[C@@H]1Cc1c[nH]c2ccc(CCS(=O)(=O)c3ccccc3)cc12 | 101
CCCCN1CCCC[C@H]1C(=O)Nc1c(C)cccc1C | 101

Repeated from above (sample 1):
Compound | nuclei count [z-score]
NCC(O)c1ccc(O)cc1 (racemic) | 0.608
CC(C)C[C@H](CN)CC(=O)O | 0.249
CCCN(CCC)C1CCc2ccc(O)cc2C1 (stereo not drawn) | 2.33
CCOC(=O)c1ncc2[nH]c3ccc(OCc4ccccc4)cc3c2c1COC | -1.99
